Assay results of several laboratories.
A part holds a random share of what one study measured. Changes are numbered by the printed parent chain.

Block 1 — method: aptamer microarray, sandwich; form: DNA with 2'F-ANA; sample: in vitro; tested at: 200 nM; together with: Cy3 exosite-II aptamer, 400 nM; direction: higher = stronger binding; measurement: mean fluorescence intensity; strand: GGTTGGTGTGGTTGG
Target: Prothrombin, mature alpha-thrombin (F2, Homo sapiens, UniProt P00734)
Setting: whole 15-mer aptamer, many near background
2'F-ANA at 1 2 4 5 7 8 9 11 12 14 15: 50.3 a.u.
2'F-ANA at 2 5 7 9 10 15: 45 a.u.
2'F-ANA at 2 4 5 6 7 10 11 13 14 15: 51.3 a.u.
2'F-ANA at 2 3 6 8 9 10 12: 438 a.u.
2'F-ANA at 3 4 9 10 13 14: 194 a.u.
2'F-ANA at 3 4 6 8 9 12 15: 848 a.u.
2'F-ANA at 1 2 3 5 7 8 9 14: 50.4 a.u.
2'F-ANA at 3 4 5 6 8 10 11 12 13 14: 51.5 a.u.
2'F-ANA at 1 4 6 11 12 13 15: 146 a.u.
2'F-ANA at 1 2 3 4 6 12 13 15: 276 a.u.
2'F-ANA at 1 2 4 5 7 8 9 14: 47.8 a.u.
2'F-ANA at 1 2 3 4 6 9 11 12 13 14 15: 58.2 a.u.
2'F-ANA at 2 3 6 7 8 9 10: 343 a.u.
2'F-ANA at 1 4 6 7 8 10 11 12 13 15: 57.5 a.u.
2'F-ANA at 3 6 7 9 11 12: 1060 a.u.
2'F-ANA at 2 4 5 6 7 11 12 13: 80 a.u.
2'F-ANA at 3 5 6 8 9 10 11 13 14 15: 52.7 a.u.
2'F-ANA at 2 3 4 7 8 9 14: 325 a.u.
2'F-ANA at 1 3 5 6 7 9 10 11 12 13 14: 66.2 a.u.

Block 2 — method: DHFR PCA, deep sequencing; sample: yeast; together with: (+)-ABA 1.4 µM; relative to: wild-type fitted maximum; direction: higher = stronger binding; measurement: relative binding score
Target: ABI1, truncated, D143A, DHFR fusion (Arabidopsis thaliana)
Setting: methotrexate growth selection, single substitutions
Parent: PYL1, truncated, DHFR fusion (Arabidopsis thaliana); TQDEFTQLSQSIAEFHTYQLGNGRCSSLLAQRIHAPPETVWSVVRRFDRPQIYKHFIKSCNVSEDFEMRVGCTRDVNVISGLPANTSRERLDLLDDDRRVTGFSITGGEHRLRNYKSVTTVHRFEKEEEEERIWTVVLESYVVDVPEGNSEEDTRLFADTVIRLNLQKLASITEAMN; partner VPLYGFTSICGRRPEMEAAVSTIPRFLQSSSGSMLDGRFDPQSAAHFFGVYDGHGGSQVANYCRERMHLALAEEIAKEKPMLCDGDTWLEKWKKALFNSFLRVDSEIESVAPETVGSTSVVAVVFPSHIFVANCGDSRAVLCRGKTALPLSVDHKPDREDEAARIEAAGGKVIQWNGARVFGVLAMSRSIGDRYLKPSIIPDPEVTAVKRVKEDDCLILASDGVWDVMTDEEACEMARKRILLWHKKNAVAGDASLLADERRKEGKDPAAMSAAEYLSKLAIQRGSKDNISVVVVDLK
V78M: 51.9%
V118G: -3.68%
F157H: 12%
A170N: -13%
R111D: -18.3%
T17Q: 9.27%
V118D: 5.05%
R113E: 27.7%
I79L: 8.61%
A84V: 18.7%
P36N: 43.2%
E128V: 42.9%
N114H: 20.5%
I12G: -4.21%
Q10Y: 15%
E109Y: 10.6%
Q167P: 4.76%
E89N: -11.8%
S87A: 9.21%

Block 3 — target: UBE2R2 UBC core domain (UniProt Q712K3); method: yeast two-hybrid; sample: yeast; setting: mostly zero background; relative to: not given; direction: higher = stronger interaction; measurement: lacZ reporter activity
B1: TRIM74 RING domain (UniProt Q86UV6); chain SLLELEDWLQCPICLEVFKESLMLQCGHSYCKGCLVSLSYHLDTKVRCPMCWQVVDGSSSLP
B2: TRIM28 RING domain (UniProt Q13263); chain GAEALELLEHCGVCRERLRPEREPRLLPCLHSACSACLGPAAPAAANSSGDGGAAGDGTVVDCPVCKQQCFSKDIVE
B3: RNF10 RING domain (UniProt Q8N5U6); chain VRICSHEVPSCPICLYPPTAAKITRCGHIFCWACILHYLSLSEKTWSKCPICYSSVHKKDLKS
B4: PJA2 RING domain (UniProt O43164); chain DHTAIGQEQCCPICCSEYIKDDIATELPCHHFFHKPCVSIWLQKSGTCPVCRRHFPPAVIEA
B5: RNF17 RING domain (UniProt Q9BXT8); chain SQPWGAAEIQCTRCGRRVSRSSGHHCELQCGHAFCELCLLMTEECTTIICPDCEVATAVNTRQR
B6: ARIH1 RING domain (UniProt Q9Y4X5); chain NTRSSAQDMPCQICYLNYPNSYFTGLECGHKFCMQCWSEYLTTKIMEEGMGQTISCPAHGCDILVDDNTVM
B7: RNF32 RING domain (UniProt Q9H0A6); chain VQALRRETHECSICLAPLSAAGGQRVGAGRRSREMALLSCSHVFHHACLLALEEFSVGDRPPFHACPLCRSCYQKKILEC
B8: TRIM32 RING domain (UniProt Q13049); chain NLDALREVLECPICMESFTEEQLRPKLLHCGHTICRQCLEKLLASSINGVRCPFCSKITRITSLTQ
B9: NHLRC1 RING domain (UniProt Q6VVB1); chain MREAEISLLECKVCFEKFGHRQQRRPRNLSCGHVVCLACVAALAHPRTLALECPFCRRACRGCDTSD
B10: TRIM68 RING domain (UniProt Q6AZZ1); chain LVEAIVEEVACPICMTFLREPMSIDCGHSFCHSCLSGLWEIPGESQNWGYTCPLCRAPVQPRNLRP
Residues (chain): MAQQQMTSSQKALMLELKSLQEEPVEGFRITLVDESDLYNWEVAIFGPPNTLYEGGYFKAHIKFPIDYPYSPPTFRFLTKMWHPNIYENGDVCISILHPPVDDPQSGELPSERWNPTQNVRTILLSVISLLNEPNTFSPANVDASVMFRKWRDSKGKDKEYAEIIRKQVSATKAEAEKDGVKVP
B1 (TRIM74 RING domain): 0
B2 (TRIM28 RING domain): 0
EIKDYKARLTCPCCNMRKKDAVLTKCFHVFCFECVKTRYDTRQRKCPKCNAAFGANDFHR (RNF20 RING domain (UniProt Q5VTR2)): 0
B3 (RNF10 RING domain): 0
B4 (PJA2 RING domain): 0
B5 (RNF17 RING domain): 0
B6 (ARIH1 RING domain): 0
B7 (RNF32 RING domain): 0
B8 (TRIM32 RING domain): 0
MEEMEEELKCPVCGSFYREPIILPCSHNLCQACARNILVQTPESESPQSHRAAGSGVSDY (TRIM9 RING domain (UniProt Q9C026)): 0
B9 (NHLRC1 RING domain): 0
B10 (TRIM68 RING domain): 0

Block 4 — method: RNA Bind-n-Seq; form: RNA; sample: in vitro; tested at: 1 µM; setting: whole 134-nt RNA, ends assumed; together with: 150 mM KCl; relative to: input library; direction: higher = stronger binding; measurement: log2 enrichment
Target: Ras GTPase-activating protein-binding protein 1, C-terminal RGG region (G3BP1, Homo sapiens, UniProt Q13283)
Sequence of UniProt Q13283 (whole entry, looked up): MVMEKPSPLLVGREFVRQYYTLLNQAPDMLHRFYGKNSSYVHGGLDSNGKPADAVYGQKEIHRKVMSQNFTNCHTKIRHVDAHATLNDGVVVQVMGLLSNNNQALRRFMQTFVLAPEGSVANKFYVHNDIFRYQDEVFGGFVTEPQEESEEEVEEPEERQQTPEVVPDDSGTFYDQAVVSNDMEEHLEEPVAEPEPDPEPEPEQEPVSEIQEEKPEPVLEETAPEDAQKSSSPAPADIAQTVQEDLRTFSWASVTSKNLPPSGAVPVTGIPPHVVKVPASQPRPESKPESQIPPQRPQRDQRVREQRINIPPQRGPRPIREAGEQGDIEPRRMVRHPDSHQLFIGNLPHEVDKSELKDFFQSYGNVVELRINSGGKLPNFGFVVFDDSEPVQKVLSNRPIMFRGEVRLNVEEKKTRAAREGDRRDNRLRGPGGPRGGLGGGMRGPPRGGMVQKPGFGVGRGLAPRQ
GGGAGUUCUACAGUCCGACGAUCCACAGACAACACGCACCCACACAGACACAGAGGGAAGGGGUUGGGCUGGGGACAGGGUGCACAGCAGGGCGGGGUAGGACCCCAGCCCCUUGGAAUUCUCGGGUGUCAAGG: -0.318
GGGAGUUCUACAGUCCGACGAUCGCAGGAAGUAAAAACAAAUGGAAAUGCUUCGGAUAGCGGCAGGGGUGGGGGUUGCUAAGGAAAGGGUGGGAUGGGAGUGGGUAAAGAGUUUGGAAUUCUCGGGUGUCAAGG: 0.552
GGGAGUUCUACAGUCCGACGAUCUCCUGUGCUACACAUCGUAUGUACCGAAUCGGGUUUUUUGGUUUUUUGGGGUUUUUUGGGAAAGUAUUAUGUUACGCCGUUCGGAUCUGCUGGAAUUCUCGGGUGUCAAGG: -0.585
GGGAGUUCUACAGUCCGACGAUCCCUCAAGUCCUGUGCUACACAUCGUAUGUACCGAAUCGGAGGAAAGGUUUGGAAAGUAUUAUGUUACGCCGUUCGGAUCUGCACUUCCAGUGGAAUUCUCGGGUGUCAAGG: -0.989
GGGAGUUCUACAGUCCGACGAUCGCAGGAAGUAAAAACAAAUGGAAAUGCUUCGGAUAGUGGCAGGGGUGGGGGUUGCUAAGGAAAGGGUGGGCUGGGAGUGGGUAAAGAGUUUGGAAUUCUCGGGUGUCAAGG: 2.32
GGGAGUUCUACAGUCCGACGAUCUGGGAGGUGGAUUUUGUUUAUUUUUUUAGCUCAUUUCCAGGGGUGGGAAUUUUUUUGUAAUAUGUGUCAUGAAUAAAGUUGUUUUUGAAAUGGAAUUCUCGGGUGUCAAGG: 3.66
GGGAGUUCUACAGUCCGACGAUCAAGUCCUGUGCUACACAUCGUAUGUACCGAAUCGGUUUUUUUGGUUUUUGGUUUGGAAAGUAUUAUGUUACGCCGUUCGGAUCUGCACUUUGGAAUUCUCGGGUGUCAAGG: -1.77
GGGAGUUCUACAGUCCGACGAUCUGCAUCUGCACUGGAGAAAUGGAAGACAGCAAUCCGGGAAGCUCAGACUUUCUCCAGGAUGCACGUGCUGCUUGGGAUGCUUGAUGCCUGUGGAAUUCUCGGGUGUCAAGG: -0.166
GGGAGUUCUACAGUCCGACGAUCGUCCUGUGCUACACAUCGUAUGUACCGAAUCGGGGAGGGGUUUUUGGGGAAAAAGGGGAAAGUAUUAUGUUACGCCGUUCGGAUCUGCACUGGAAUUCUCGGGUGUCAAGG: 0.956
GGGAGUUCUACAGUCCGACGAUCUCCUGUGCUACACAUCGUAUGUACCGAAUCGGGGAAAAAGGGGAAAAAGGGGAAAAAGGAAAGUAUUAUGUUACGCCGUUCGGAUCUGCAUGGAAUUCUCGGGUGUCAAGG: -1.08
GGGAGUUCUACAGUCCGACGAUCAGUCCUGUGCUACACAUCGUAUGUACCGAAUCGGGUUUUUGGUUUUUGGUUUUUGGGGAAAGUAUUAUGUUACGCCGUUCGGAUCUGCACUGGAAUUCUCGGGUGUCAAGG: -1.62
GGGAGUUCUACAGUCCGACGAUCAGUCCUGUGCUACACAUCGUAUGUACCGAAUCGGGAGGGAAAAAAAGGGUUUUUGGGAAAGUAUUAUGUUACGCCGUUCGGAUCUGCACUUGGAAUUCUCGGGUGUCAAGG: -0.186
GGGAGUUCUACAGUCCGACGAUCUGGAGGAGCCAUAGAAUAUUAAGGAUGAAUUCAGGAAGGCCUGAGACCAUGGAAAACUUGCCUGCUCUCUACACUAUUUUCCAAGGAGAGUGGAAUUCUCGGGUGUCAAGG: -1.09
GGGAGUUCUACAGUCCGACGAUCCACAGACAACACGCACCCACACAGACACAGAGGGAAGGGGUUAAAAUGGGGACAGGGUGCACAGCAGGGCGGGGUAGGACCCCAGCCCCUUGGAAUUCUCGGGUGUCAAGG: -0.447

Block 5 — target: CCND1, cyclin fold, Cln2 fusion (human); method: yeast growth competition, sequencing; sample: yeast; setting: strong parent motif; relative to: not given; direction: higher = stronger binding; measurement: normalised enrichment score
Parent: RBL1 docking peptide (human); GSAKRRLFGEDPP
CSAKRRLFGEDPP [G1C]: 1.61
GSAKRRLRGEDPP [F8R]: 0.00169
GSAKRRLFGEDHP [P12H]: 1.27
GSAKRRRFGEDPP [L7R]: -0.0668
RSAKRRLFGEDPP [G1R]: 2.59
GSAKRRLMGEDPP [F8M]: 0.011
GSAKRKLFGEDPP [R6K]: 2.62
GSAKRRAFGEDPP [L7A]: 0.316
GSAKRRLGGEDPP [F8G]: -0.0862
GSAKRRLFGEPPP [D11P]: 0.952
GSAKRRLFGEKPP [D11K]: 0.806
GSHKRRLFGEDPP [A3H]: 0.301
GSAKRRSFGEDPP [L7S]: 0.819
GSAKRRLFGEDPR [P13R]: 1.57
GSAPRRLFGEDPP [K4P]: 0.124
GSAKRELFGEDPP [R6E]: 1.84
GSAKRRLFGEIPP [D11I]: 0.62
GSAKRRLFGLDPP [E10L]: 0.68
GSAKRRLFGRDPP [E10R]: 0.651
GSAKRRLFEEDPP [G9E]: 2.3
GSAKRRLFGEDPT [P13T]: 1.62
GSAMRRLFGEDPP [K4M]: 1.28
GSAKRRNFGEDPP [L7N]: 0.712
GSAKRRGFGEDPP [L7G]: 0.266

A few entries again (block 5):
GSAKRRLMGEDPP [F8M]: 0.011
GSAMRRLFGEDPP [K4M]: 1.28
GSAKRRLFGEDPT [P13T]: 1.62
RSAKRRLFGEDPP [G1R]: 2.59
GSAKRKLFGEDPP [R6K]: 2.62
GSAKRRNFGEDPP [L7N]: 0.712
GSAKRRRFGEDPP [L7R]: -0.0668
GSAKRRSFGEDPP [L7S]: 0.819
GSAKRRLFGRDPP [E10R]: 0.651
GSAKRRLFGEKPP [D11K]: 0.806
GSAKRRLRGEDPP [F8R]: 0.00169
GSAKRRGFGEDPP [L7G]: 0.266
